Published values collected from several papers.
Lines come from different studies, so protocols differ.
Cell line: OVCAR-4

Structure (SMILES)	test	setting	how to read	quantity	value
O=C(/C=C/C=C/C=C/C1CCCCC1)NC1=C[C@@](O)(/C=C/C=C/C=C/C(=O)NC2=C(O)CCC2=O)[C@@H]2O[C@@H]2C1=O	cell growth, CellTiter-Glo	78 h		GI50	16.4 µM
COc1ccc(OC)c(-c2nc3ccc(-c4nc5ccc(N6CCN(C)CC6)cc5[nH]4)cc3[nH]2)c1	SRB	10 µM, 48 h		growth percent	113%
CCN(CC)c1ccc(C=NNC(=O)CSc2nc3ccccc3c(=O)n2Cc2ccc(S(N)(=O)=O)cc2)c(O)c1	NCI five-dose screen			TGI	> 100 µM
C#C[C@@]1(O)[C@@H](CO)O[C@@H](n2ccc3c(N)ncnc32)[C@@H]1O	SRB	NCI-60 screen		TGI	7.79 µM
CCOC(=O)CSc1nc(-c2ccc(Cl)cc2)c2c(NC(=O)c3ccccc3)nnc-2[nH]1	SRB	10 µM, NCI60 single-dose screen	reference: untreated	cell growth	94.2%
CCCN1CCN(c2ccc3[nH]c(-c4ccc5[nH]c(-c6cc(OC)c(OC)c(OC)c6)nc5c4)nc3c2)CC1	SRB	10 µM, 48 h		growth percent	89.9%
O=C(Nc1nnc2n3c(=S)[nH][nH]c3nc(-c3ccc(Cl)cc3)c1-2)c1ccccc1	SRB	10 µM, NCI60 single-dose screen	reference: untreated	cell growth	96.8%
O=C1NC(=NCc2cccs2)S/C1=C\c1ccc2ncccc2c1	MTS	NCI60 panel		IC50	> 10 µM
Cn1cncc1C1=CN(c2ncnc3[nH]cnc23)CCS1		ovarian cancer		GI50	42.7 µM
O=C(Nc1nnc2n3c(Cc4ccccc4)n[nH]c3nc(-c3ccc(Cl)cc3)c1-2)c1ccccc1	SRB	10 µM, NCI60 single-dose screen	reference: untreated	cell growth	96.9%
CCCN1CCN(c2ccc3[nH]c(-c4ccc5[nH]c(-c6ccc(C(F)(F)F)cc6)nc5c4)nc3c2)CC1	SRB	10 µM, 48 h		growth percent	-82.5%
Cc1cc(C)n(C(=S)[S][Au][PH](CCCCCC[PH]([Au][S]C(=S)n2nc(C)cc2C)(c2ccccc2)c2ccccc2)(c2ccccc2)c2ccccc2)n1	cell growth, NCI-60 screen	ovarian cancer		log10 TGI	> -4
C#C[C@@]1(O)[C@@H](CO)O[C@@H](n2cc(Br)c3c(N)ncnc32)[C@@H]1O	SRB	NCI-60 screen		TGI	> 100 µM
CCCCN1CCN(c2ccc3[nH]c(-c4ccc5[nH]c(-c6ccc(C(F)(F)F)cc6)nc5c4)nc3c2)CC1	SRB	10 µM, 48 h		growth percent	-84.2%
Cc1cc(=O)[nH]n1-c1nc(-c2ccc(Cl)cc2)c2c(NC(=O)c3ccccc3)nnc-2[nH]1	SRB	10 µM, NCI60 single-dose screen	reference: untreated	cell growth	105%
CCCCN1CCN(c2ccc3[nH]c(-c4ccc5[nH]c(-c6ccc(OCC)cc6)nc5c4)nc3c2)CC1	SRB	10 µM, 48 h		growth percent	55.2%
O=C(Nc1nnc2[nH]c(=S)[nH]c(-c3ccc(Cl)cc3)c1-2)c1ccccc1	SRB	10 µM, NCI60 single-dose screen	reference: untreated	cell growth	100%
